# Measured values pooled from the literature.
# Each numbered part is a random draw from the data of one study; scales do not carry over between parts. Positions count from the first letter of the parent shown.

# Study 1
# Target: Sal-like protein 4, full length isoform A (SALL4, Homo sapiens, UniProt Q9UJQ4, residues 1-1053)
# Chain of UniProt Q9UJQ4 (whole entry, looked up): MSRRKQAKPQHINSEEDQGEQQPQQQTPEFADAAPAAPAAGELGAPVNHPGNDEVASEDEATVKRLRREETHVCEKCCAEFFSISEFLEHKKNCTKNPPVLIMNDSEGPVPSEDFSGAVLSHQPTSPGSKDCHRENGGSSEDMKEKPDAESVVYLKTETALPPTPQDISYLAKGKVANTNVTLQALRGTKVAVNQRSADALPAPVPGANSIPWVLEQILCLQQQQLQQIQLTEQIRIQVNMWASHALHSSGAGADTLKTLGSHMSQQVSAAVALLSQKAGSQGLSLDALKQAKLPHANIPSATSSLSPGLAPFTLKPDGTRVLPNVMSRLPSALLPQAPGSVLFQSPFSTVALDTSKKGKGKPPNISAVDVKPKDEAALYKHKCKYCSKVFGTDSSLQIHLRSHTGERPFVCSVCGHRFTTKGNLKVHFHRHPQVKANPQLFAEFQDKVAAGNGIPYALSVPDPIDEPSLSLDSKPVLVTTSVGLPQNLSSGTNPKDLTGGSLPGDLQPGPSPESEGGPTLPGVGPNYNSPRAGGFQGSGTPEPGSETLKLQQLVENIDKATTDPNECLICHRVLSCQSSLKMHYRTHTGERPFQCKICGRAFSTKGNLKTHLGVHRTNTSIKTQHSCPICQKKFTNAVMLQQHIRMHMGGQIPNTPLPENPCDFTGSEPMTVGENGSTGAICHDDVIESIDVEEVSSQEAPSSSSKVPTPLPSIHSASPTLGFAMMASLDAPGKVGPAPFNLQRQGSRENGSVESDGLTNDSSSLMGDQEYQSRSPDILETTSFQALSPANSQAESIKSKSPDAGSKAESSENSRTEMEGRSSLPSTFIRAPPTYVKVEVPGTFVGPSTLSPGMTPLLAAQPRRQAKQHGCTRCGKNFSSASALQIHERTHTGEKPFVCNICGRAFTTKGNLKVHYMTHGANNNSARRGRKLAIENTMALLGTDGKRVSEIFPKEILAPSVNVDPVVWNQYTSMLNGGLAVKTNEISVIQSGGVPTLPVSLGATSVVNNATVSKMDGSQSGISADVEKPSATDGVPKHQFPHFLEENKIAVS
# Technique: universal PBM
# Molecule type: double-stranded DNA, one strand shown
# Medium: in vitro
# Tested at: 600 nM
# Setting: 8-mer, flanks averaged, mean of replicates
# Reading: higher = stronger binding
Strand,E-score
GGCTTAGA,-0.0378
TCGGCTCA,-0.217
GTATCTAA,0.268
AACGCAAT,0.221
GAATCTAA,0.0389
GATTGTAC,-0.103
GAACCCAC,-0.225
CCATGCCC,-0.276
CGGCTACG,-0.374
AAGCCCAG,-0.172
GAACGTAC,-0.156
AATCCCGA,0.0511
TCGATGAA,0.172
ACCTTCCA,-0.0609
TGGGGGAA,-0.122
CCCGTAGG,-0.326
CGTTAGAC,0.055
GGGACGAC,-0.245
ATGAAAGC,0.198
GTAAATTA,0.33
ATCAGCTC,0.0249
CGATCCGA,-0.265
CTCCGACC,-0.284
GATTTGAC,0.0667

# Study 2
# Target: RNA binding protein fox-1 homolog 2, RRM domain, GST-SBP tag (RBFOX2, Homo sapiens, UniProt O43251-10, residues 100-194)
# Technique: RNA Bind-n-Seq
# Molecule type: RNA
# Medium: in vitro
# Tested at: 365 nM
# Setting: natural RNA segment, single round, ends assumed
# Relative to: no-protein control
# Reading: higher = stronger binding
# Constant ends, left off below: GGGAGUUCUACAGUCCGACGAUC … UGGAAUUCUCGGGUGCCAA
# Target sequence (chain): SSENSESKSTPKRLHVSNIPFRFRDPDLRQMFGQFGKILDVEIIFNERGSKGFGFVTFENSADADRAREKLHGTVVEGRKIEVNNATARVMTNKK
Strand,RBNS enrichment (R)
CCAGGUCCUUGGGAUGGUUGACCCCUGCCUCUGCAGUAGCCUUUUGUGAGUCUGCUAAGGUAGCUCUCACACACCUCGGCUCUGGGGUUGAUACCUGAGCCUGCAAUAGA,0.223
AUACCUUGUUCCUCUAUGUGCCGCUGUGUGCCAGCCCUCAAACAUCUCCUGUAAAGAGAACAGAGGAGUCUUUAAUGGUUUCUGGAAGGAGAAGGGAUAGGACUUUGUGG,0.509
AAUACAGUUAACUAAUUGUAAAUAUGCUGUUAACCAAAAGAGCUUUCCCUCCCUCACUUUUUCCUUUGUAAACACUCAUGACUGCUUCUCUGUCUCGAGUCAUCUCUGCA,0.939
UGGAUAUCAUCAAAACUAUCUUUGUGCUCCCAAAACUUGGUGUUCAUGUGUAUCCCUUUAAGUUGUUUCUCCUUGACACGCUCCACAAUGGCAAAGAUACCAAGUCAUAC,0.55
AGAGUUGGGGACCCCUGUUGGCCACUUGUUGACCUCUCAUAGUGGUGCUUGGGCCAGGUCUUCUCAAUGGAAGGGGAAUCCCUUAUAGGGGAGAGGGAACAGAGCCCAGU,0.462
UAAUAGACUUAUUUAAUAUUAAUUCCUAAACUUUGCACUGUCAAUCCUCUGCUGAGUUGUGGGAGGCAGACCUCAGUUUGCUUGUUUUUUGUGAAAGCUAACUUUAUGAU,0.562
UGAUAGCAGCCAUGCCCCUGGGAGUCAACUUCAAGGAUCUGGGACAUUUUGGUGUGCCCAUUCCUUCUUUUCCUGAACUCACAGUCUUGGGGUGUUUCUGCACUUGGCUA,0.281
CUGUCAAUGGGGGUGUAGUAUUUUUGCCAAAAUAUCAUGUUCAAUUUCAGUAGUUUGAUCAGUUGAAGGCUAGAAGUGUGAAGUGCAGAUGAGUGUGUGUUCUUCCCCAA,2.78
UACCAUGCCAUCUGUGCCAGUGUGUGUCUGCCUCACCCUGUGCUUGACAUGUUCACCCAUCUUCUCUGCUUCCCGCCACCAUCCAGAUCCUCAGCGGCCGCCCCGGCUGU,0.222
UGUGGGACCCUGGCCAAGUGCAGGAAUGGGCCAUGCCGUCUCACCCACAGUAUCACACGUGGAACCGCAGACAGGGCCCAGAAGCUUUAGAGGUAUGAGGCUGCAGAACC,0.373
AUCUAGUCCUACAAGUAGGGUUUUGCAUACUGUGUUUGCCCCUAGGGUUGUCAGUGCAUCAGAAAUACUUCUAAAUAGUGGUAAAAAUGCACAUGGUUAAUGCACAUGUU,0.614
GUCCAUAGGCCACCAAUUCUCCUUGCGCUGCUCAGGCCUUCUCUCACCAGAUGGGCUUCCAUUCACCUUCGGACCCAGGGCCUCCAAGCCACACAGCUAUUCUUUGGCCA,0.573

# Study 3
# Target: Histone acetyltransferase KAT6A, winged helix 1, GST fusion (KAT6A, Homo sapiens, UniProt Q92794, residues 1-85)
# Technique: protein binding microarray
# Molecule type: double-stranded DNA, one strand shown
# Medium: in vitro
# Tested at: not given
# Setting: 8-mer, flanks averaged, mean of 2 arrays, mostly near background
# Relative to: not given
# Reading: higher = stronger binding
# Residues (chain): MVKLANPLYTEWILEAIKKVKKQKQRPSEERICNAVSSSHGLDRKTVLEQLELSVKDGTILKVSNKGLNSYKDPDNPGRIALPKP
Strand,E-score
AAAACCAT,-0.0465
CCACAACG,0.122
GCATTAAA,-0.245
GCAGACTA,0.0679
ACGCTGGG,0.06
GAGCTGAA,-0.267
AAGCATGC,-0.0488
ACTCGCTG,0.123
GGTAGAGA,-0.0891
AACCACCA,-0.162
AGTATCGG,0.144
CCCGTTTC,0.243
ACACAGGT,-0.24
TAGCACGA,-0.0778
ACTATAGG,-0.0992
ACCGAGTG,-0.000635
AAATTAGG,-0.0596
AGCTAGTA,-0.106
AGATAACT,-0.0971
TGGAGCAA,-0.091
GAAACGGA,0.125
ACCCGGTA,0.189
CCTTCCAC,0.0309
CTGGGTGC,-0.106
AAGTGGAA,-0.184

# Study 4
# Target: Fragile X messenger ribonucleoprotein 1, C-terminal low-complexity region (Fmr1, Mus musculus, UniProt P35922)
# Technique: RNA Bind-n-Seq
# Molecule type: RNA
# Medium: in vitro
# Tested at: 200 nM
# Setting: whole 134-nt RNA, ends assumed
# Added: 150 mM LiCl
# Relative to: input library
# Reading: higher = stronger binding
# Each molecule: 7-deaza-guanosine replaces G
# Constant ends, left off below: GGGAGUUCUACAGUCCGACGAUC … UGGAAUUCUCGGGUGUCAAGG
Strand,log2 enrichment
CACAGACAACACGCACCCACACAGACACAGAGGGAAGGAAAUGGGAUGGGGACAGGGUGCACAGCAGGGCGGGGUAGGACCCCAGCCCCU,-0.841
GUCCUGUGCUACACAUCGUAUGUACCGAAUCGGGUUUUUUUGGGUUUUUGGGUUUGGGAAAGUAUUAUGUUACGCCGUUCGGAUCUGCAC,-0.514
UGGAGAUGACAGAAAUGACUGGUGUGUCGCUGAAACGUGGGGCACUGGUUGUCGAAGAUAAUGACAGUGGAGUCCCAGUUGAAGAGACAA,-3.8
UGGGAGGUGGAUUUUGUUUAUUUUUUUAGCUCAUUUCCAGGGGUAGGAAUUUUUUUUUAAUAUGUGUCAUGAAUAAAGUUGUUUUUGAAA,-0.945
GCAGGAAGUAAAAACAAAUGGAAAUGCUUCGGAUAGUGGCAGGGGUGGGGGUUGCUAAGGAAAGGGUGGGAUGGGAGUGCGUAAAGAGUU,1.65
ACCAUGGAGGUGGGCAUCUUUGGGAAGUGGGGCAAGGGGGGGAUAGGGAGGGGGGUAACACUUUGGGAACAGGUGGUCCCAGGUCGUUUC,1.25
UGGCCCUGGUGGCAUGCGGGGAGGAAGAGGUGGCCUCAUGGCUCGUGGUGGUCCCGGUGGAAUGUUCAGAGGUGGCCGUGGUGGAGACAG,-0.351
CUGUGCUACACAUCGUAUGUACCGAAUCGGGGUUUUUUUGGUUUUUUUGGGUUUUUUUGGGGAAAGUAUUAUGUUACGCCGUUCGGAUCU,0.758
UGGCCCUGGUGGCAUGCGGGGAGGAAGAGGUGGCCUCAUGUAUCGUGGUGGUCCCGGUGGAAUGUUCAGAGGUGGCCGUGGUGGAGACAG,-0.323
GUCCUGUGCUACACAUCGUAUGUACCGAAUCGGCCCCCCGGCCCCCCGGCCCCCCGGGAAAGUAUUAUGUUACGCCGUUCGGAUCUGCAC,1.32
UCAAGUCCUGUGCUACACAUCGUAUGUACCGAAUCGGAAAGGAAAGGAAAAAGGAAAGUAUUAUGUUACGCCGUUCGGAUCUGCACUUCC,-0.42

# Study 5
# Target: CCND1, cyclin fold, Cln2 fusion (human)
# Technique: yeast growth competition, sequencing
# Medium: yeast
# Setting: strong parent motif
# Relative to: not given
# Reading: higher = stronger binding
# Parent: SCAPER docking peptide (human); SNARRSLNFGGST; partner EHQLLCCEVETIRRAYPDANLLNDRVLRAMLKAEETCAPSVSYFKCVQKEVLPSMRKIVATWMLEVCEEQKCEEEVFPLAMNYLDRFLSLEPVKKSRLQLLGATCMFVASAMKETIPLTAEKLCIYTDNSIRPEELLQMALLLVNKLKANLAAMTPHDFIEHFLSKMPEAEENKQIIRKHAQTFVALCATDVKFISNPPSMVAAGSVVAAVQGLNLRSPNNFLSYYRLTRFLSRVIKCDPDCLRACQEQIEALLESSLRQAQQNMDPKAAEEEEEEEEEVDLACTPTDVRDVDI
Change,normalised enrichment score
SAARRSLNFGGST [N2A],1.04
SNARRSLNMGGST [F9M],0.356
ANARRSLNFGGST [S1A],0.556
SNARRSVNFGGST [L7V],0.311
STARRSLNFGGST [N2T],0.963
SNARRWLNFGGST [S6W],1.06
SNARTSLNFGGST [R5T],0.209
SNARRSLNEGGST [F9E],0.0483
SNAYRSLNFGGST [R4Y],-0.108
SNAFRSLNFGGST [R4F],-0.078
SNARRSLNYGGST [F9Y],-0.279
SNARRSLNFGGSQ [T13Q],1
SNARMSLNFGGST [R5M],0.927
SNARRSLNFCGST [G10C],0.445
SNARRSDNFGGST [L7D],0.559
SNARRRLNFGGST [S6R],2.88
SNARVSLNFGGST [R5V],0.717
SNARRSLNFGGSA [T13A],0.769
SNALRSLNFGGST [R4L],-0.382

# Repeated from above (study 5):
Change,normalised enrichment score
ANARRSLNFGGST [S1A],0.556
SNARRSVNFGGST [L7V],0.311
STARRSLNFGGST [N2T],0.963
SNARRWLNFGGST [S6W],1.06
SNARTSLNFGGST [R5T],0.209
SNARRSLNEGGST [F9E],0.0483
SNAYRSLNFGGST [R4Y],-0.108
SNAFRSLNFGGST [R4F],-0.078
SNARRSLNYGGST [F9Y],-0.279
SNARRSLNFGGSQ [T13Q],1
SNARMSLNFGGST [R5M],0.927
SNARRSLNFCGST [G10C],0.445
SNARRSDNFGGST [L7D],0.559
SNARRRLNFGGST [S6R],2.88
SNARVSLNFGGST [R5V],0.717
